Published values collected from several papers.
Parts stem from different laboratories: compare values within a part only. Positions count from the first letter of the parent shown.

Block 1
Target: RING finger protein unkempt homolog, zinc fingers 1-6, GST-SBP tag (UNK, Homo sapiens, UniProt Q9C0B0, residues 30-357)
Method: RNA Bind-n-Seq
Form: RNA
Matrix: in vitro
Concentration: not given
Setting: RNA with constant flanks, human-mouse chimeric sites, ends assumed
Reference: input RNA pool
Reading: higher = stronger binding
Target sequence (chain): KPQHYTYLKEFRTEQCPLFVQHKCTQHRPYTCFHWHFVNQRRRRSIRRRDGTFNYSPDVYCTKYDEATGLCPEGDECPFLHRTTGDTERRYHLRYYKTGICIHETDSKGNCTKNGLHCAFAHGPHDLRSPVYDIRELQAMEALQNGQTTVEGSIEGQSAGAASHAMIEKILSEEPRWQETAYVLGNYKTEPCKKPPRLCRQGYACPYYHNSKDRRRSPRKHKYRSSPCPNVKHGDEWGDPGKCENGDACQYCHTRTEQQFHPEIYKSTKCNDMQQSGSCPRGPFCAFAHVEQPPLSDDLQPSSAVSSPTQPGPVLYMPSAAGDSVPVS
With `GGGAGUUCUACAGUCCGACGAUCUUAAUCCCCUUUACUGCUCCCCCACUUGUCAUGCUGAUAACAAAGUCUUAUAUUCCCGUCCUAGCUUUCACUCAGAUGGCUUAUGGAGCCGGUUUCCUAGCUUUCUUGGGAGGGAUCAGACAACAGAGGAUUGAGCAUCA` the bound/input enrichment was 0.282 ratio.
`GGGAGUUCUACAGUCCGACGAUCAUGGAACAUUUCGAUGCGUCACUCAGUACCUAUUUCAAGGCCUUCCUAGGCCCUCGAGAUACAAGAGUCAAAGGAUGGUUCCUCCUGGACAAUUACAUCCCUACGUUUGUCUGUUCUGUUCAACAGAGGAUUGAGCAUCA` has a bound/input enrichment of 0.0763 ratio.
With `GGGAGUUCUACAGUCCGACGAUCGCAAAGGAUGAUGAGGCGGCAGCUGUUGCCCUUUCCUCUCUCGUUCAUGCUUUGGAUGAGUUAAACAUGGUCGCCAUCGUCCGAUAUGCUUAUGACAAAAGAGCUAAUCCUCAAGUCGGUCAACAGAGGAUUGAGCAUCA` the bound/input enrichment was 0.515 ratio.
For `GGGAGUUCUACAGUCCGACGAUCCAGCUGCAGACAGAAAAGGAUGAGAAGGAGCUGUAUAAGGUACAUUUGAAGAAUACAGAAAUAGAAAAUACCAAGCUUGUGUCAGAGGUCCAGACUUUAAAGAAUUUAGAUGGAAACAAACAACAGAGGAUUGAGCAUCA`, the bound/input enrichment was 1.8 ratio.
With `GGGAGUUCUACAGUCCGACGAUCAACGUGGAGUUGAGUUCGCUGGCCCGGCUUCCCAGCUUGAAUAAACUUCGAAAAUUGGAACUUAGUGACAAUAUAAUUUCUGGAGGCUUGGAAGUCCUGGCAGAGAAAUGUCCAAAUCUUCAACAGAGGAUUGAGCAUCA` the bound/input enrichment was 0.394 ratio.
The bound/input enrichment of `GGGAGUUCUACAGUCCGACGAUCCGCUGGCCCAAGCUGAUGGACUCUGAUGGCCUCCAUCUCUCAGGCACGUGUGCCUUCUCUUAGUUAUUGUUUUCGGGAUGUUAUGAAUCUCAGUACUGUUUGACAGAAGCACCAGCUUUGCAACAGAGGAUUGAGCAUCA` is reported as 6.54 ratio.
`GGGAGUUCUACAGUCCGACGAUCGAUCCACAGUGGUCUGAGGAGCAACUCAUUGCUGCAAAAUUCUGUUUUGCUGGCCUUGUUAUAGGGCAGACUGAAGUGGAUAUCAUGAGUCAUGCCACACAAGCUAUAUUUGAAAUACUGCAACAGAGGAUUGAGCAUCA` has a bound/input enrichment of 0.232 ratio.
For `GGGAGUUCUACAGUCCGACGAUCACUCAGAGAUCCACCUCCCAAAGUGCUCUGGAGCUCUGUGUGGCCACCACACCUAACUUGAUGGAUAUAUAUUUUUUUUAAUAUGAAUGAACUCUUGCGUCCAGGGAAGAAAGAUUUGUUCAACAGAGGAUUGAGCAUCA`, the bound/input enrichment was 0.69 ratio.

Block 2
Target: Fragile X messenger ribonucleoprotein 1, C-terminal low-complexity region (Fmr1, Mus musculus, UniProt P35922)
Method: RNA Bind-n-Seq
Form: RNA
Matrix: in vitro
Concentration: 200 nM
Setting: whole 134-nt RNA, ends assumed
Added: 150 mM LiCl
Reference: input library
Reading: higher = stronger binding
Library: 7-deaza-guanosine replaces G
With `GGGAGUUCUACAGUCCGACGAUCUGGGAGGUGGAUUUUGUUUAUUUUUUUAGCUCAUUUCCAGGGGUGGGAAUUUUUUUUUAAUAUGUGUCAUGAAUAAAGUUGUUUUUGAAAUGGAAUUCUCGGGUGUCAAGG` the log2 enrichment was 0.00818.
`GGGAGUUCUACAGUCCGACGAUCUGGGAGGUGGAUUUUGUUUAUUUUUUUAGCUCAAUUCCAGGGGUGGGAAUUUUUUUUUAAUAUGUGUCAUGAAUAAAGUUGUUUUUGAAAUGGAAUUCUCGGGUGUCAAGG` gave a log2 enrichment of 0.628.
The log2 enrichment of `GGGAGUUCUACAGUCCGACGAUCUGGCUGGCUGUGGCCUCACAGCUGAGGACUGCAAGGACCUUGCCUUUGGGCUGAGAGCCAACCAGACCCUGACCGAGCUGGACCUGAGCUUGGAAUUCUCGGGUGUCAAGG` is reported as -4.44.
The log2 enrichment of `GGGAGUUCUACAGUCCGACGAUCUGGCCCUGGUGGCAUGCGGGGAGGAAGAGGUGGCCUCAUGGAUCGUGGUGAUCCCGGUGGAAUGUUCAGAGGUGGCCGUGGUGGAGACAGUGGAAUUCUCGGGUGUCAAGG` is reported as -0.262.
`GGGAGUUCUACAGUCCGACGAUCAAGUCCUGUGCUACACAUCGUAUGUACCGAAUCAAAUUUAAACCCCCAAACCCAAAAAAGUAUUAUGUUACGCCGUUCGGAUCUGCACUUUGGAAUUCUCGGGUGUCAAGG` gave a log2 enrichment of 0.945.
`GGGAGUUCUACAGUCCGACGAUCCUGUGCUACACAUCGUAUGUACCGAAUCGGGGCCCCCCCGGCCCCCCCGGGGCCCCCCCGGGAAAGUAUUAUGUUACGCCGUUCGGAUCUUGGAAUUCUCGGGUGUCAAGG` has a log2 enrichment of -0.416.
`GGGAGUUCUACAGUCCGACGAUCCACAGACAACACGCACCCACACAGACACAGAGGGAAGGGGCUGGGAUGGGGACAGGGUGCACAGCAGGGCGGGGUAGGACCCCAGCCCCUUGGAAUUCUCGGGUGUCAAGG` has a log2 enrichment of 0.723.
For `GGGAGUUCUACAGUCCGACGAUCAGUCCUGUGCUACACAUCGUAUGUACCGAAUCGGGGAAAAAGGAAAAAGGAAAAAGGAAAGUAUUAUGUUACGCCGUUCGGAUCUGCACUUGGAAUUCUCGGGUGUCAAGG`, the log2 enrichment was -1.44.

Block 3
Target: Centromere-binding protein 1, full length, N-terminal tag (CBF1, Saccharomyces cerevisiae, UniProt P17106, residues 1-351)
UniProt P17106, sequence (whole entry, looked up): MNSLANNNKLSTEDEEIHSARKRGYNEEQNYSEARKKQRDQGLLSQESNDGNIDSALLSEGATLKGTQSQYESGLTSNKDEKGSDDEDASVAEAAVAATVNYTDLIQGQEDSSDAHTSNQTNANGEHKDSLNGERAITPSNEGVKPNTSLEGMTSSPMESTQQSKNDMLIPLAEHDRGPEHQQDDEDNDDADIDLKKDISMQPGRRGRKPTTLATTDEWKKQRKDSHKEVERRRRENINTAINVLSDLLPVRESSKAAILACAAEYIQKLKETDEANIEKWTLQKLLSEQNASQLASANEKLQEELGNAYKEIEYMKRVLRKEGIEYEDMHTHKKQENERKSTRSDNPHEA
Method: protein-binding microarray
Form: double-stranded DNA, one strand shown
Matrix: in vitro
Concentration: 0.8 µM
Setting: whole 60-bp probe, no competitor
Reading: higher = stronger binding
With `TGTACGAAGCTATGTGACGTTCGTATAGTAGTTAGGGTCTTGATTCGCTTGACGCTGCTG` the fluorescence intensity was 513 a.u.
The fluorescence intensity of `CTATTAAAATGACATCAGGTATCAATGCTAATCTTCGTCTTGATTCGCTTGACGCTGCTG` is reported as 561 a.u.
`CTATTTATGCTAGTATACACCACGCATATGTCTTTCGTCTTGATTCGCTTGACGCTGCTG` gave a fluorescence intensity of 547 a.u.
For `GAAATAGTCCGTTGTCGTGCGCATTCTTCTGTGTAGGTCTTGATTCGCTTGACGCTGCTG`, the fluorescence intensity was 519 a.u.
The fluorescence intensity of `CCTAACTACTATATAAATGATCAATAGCTTCGTACAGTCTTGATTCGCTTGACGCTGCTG` is reported as 519 a.u.
The fluorescence intensity of `TGTACGAAGCTATGTCACGGGGATATAGTAGTTAGGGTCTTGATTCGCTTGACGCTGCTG` is reported as 1820 a.u.
`GAAGCAAGGTCCCATCAGCTGTACAAAATAATCTAGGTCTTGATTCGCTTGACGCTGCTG` has a fluorescence intensity of 568 a.u.
`GAAAGACCACAACGTGTCACTGCTAAGCTGAATTAGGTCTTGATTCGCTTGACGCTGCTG` has a fluorescence intensity of 554 a.u.

Mixed results
Starting sequence: viral docking peptide; KGVKRKLFAEDSS; partner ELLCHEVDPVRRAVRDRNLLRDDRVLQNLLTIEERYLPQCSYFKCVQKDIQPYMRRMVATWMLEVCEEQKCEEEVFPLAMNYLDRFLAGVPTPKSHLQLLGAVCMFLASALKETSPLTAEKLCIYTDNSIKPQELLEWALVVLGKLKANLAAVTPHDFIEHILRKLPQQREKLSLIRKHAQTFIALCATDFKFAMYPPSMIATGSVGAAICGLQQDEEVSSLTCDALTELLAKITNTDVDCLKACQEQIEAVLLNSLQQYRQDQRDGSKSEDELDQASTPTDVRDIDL
Under “normalised enrichment score”, `KFVKRKLFAEDSS [G2F]` is recorded as 0.434 (CCND2, cyclin fold, Cln2 fusion (human); yeast growth competition, sequencing; yeast; weak parent motif; reference: not given, higher = stronger binding).

Repeated from above (block 2):
`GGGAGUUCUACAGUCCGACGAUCAAGUCCUGUGCUACACAUCGUAUGUACCGAAUCAAAUUUAAACCCCCAAACCCAAAAAAGUAUUAUGUUACGCCGUUCGGAUCUGCACUUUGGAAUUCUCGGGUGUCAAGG` gave a log2 enrichment of 0.945.
`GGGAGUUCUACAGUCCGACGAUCCUGUGCUACACAUCGUAUGUACCGAAUCGGGGCCCCCCCGGCCCCCCCGGGGCCCCCCCGGGAAAGUAUUAUGUUACGCCGUUCGGAUCUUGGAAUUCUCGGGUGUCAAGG` has a log2 enrichment of -0.416.
`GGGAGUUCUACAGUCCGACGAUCCACAGACAACACGCACCCACACAGACACAGAGGGAAGGGGCUGGGAUGGGGACAGGGUGCACAGCAGGGCGGGGUAGGACCCCAGCCCCUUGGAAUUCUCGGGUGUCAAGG` has a log2 enrichment of 0.723.
For `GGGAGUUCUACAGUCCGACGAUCAGUCCUGUGCUACACAUCGUAUGUACCGAAUCGGGGAAAAAGGAAAAAGGAAAAAGGAAAGUAUUAUGUUACGCCGUUCGGAUCUGCACUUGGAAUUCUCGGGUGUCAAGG`, the log2 enrichment was -1.44.
